Results gathered from unrelated publications.
“And” joins repeats or separate records; there may be more than shown. ± marks the error that the study gave.
Tumor necrosis factor receptor superfamily member 1A extracellular domain: Tumor necrosis factor receptor superfamily member 1A, extracellular domain (Homo sapiens, UniProt P19438)
Chain of UniProt P19438 (whole entry, looked up): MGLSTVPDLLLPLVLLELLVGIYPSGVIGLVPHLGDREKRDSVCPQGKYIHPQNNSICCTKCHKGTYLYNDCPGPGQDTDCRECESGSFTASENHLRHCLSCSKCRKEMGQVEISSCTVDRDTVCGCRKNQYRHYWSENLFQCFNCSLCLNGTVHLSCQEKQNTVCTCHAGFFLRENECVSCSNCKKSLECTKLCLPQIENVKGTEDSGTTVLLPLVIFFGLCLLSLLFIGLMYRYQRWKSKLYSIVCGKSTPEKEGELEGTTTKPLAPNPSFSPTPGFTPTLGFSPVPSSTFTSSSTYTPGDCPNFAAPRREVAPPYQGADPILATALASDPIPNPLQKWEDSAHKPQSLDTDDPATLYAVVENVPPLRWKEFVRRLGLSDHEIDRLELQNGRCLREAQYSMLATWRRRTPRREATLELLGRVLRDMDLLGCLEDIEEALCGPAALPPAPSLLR
MAPK8: Mitogen-activated protein kinase 8 (MAPK8, Homo sapiens, UniProt P45983)
Chain of UniProt P45983 (whole entry, looked up): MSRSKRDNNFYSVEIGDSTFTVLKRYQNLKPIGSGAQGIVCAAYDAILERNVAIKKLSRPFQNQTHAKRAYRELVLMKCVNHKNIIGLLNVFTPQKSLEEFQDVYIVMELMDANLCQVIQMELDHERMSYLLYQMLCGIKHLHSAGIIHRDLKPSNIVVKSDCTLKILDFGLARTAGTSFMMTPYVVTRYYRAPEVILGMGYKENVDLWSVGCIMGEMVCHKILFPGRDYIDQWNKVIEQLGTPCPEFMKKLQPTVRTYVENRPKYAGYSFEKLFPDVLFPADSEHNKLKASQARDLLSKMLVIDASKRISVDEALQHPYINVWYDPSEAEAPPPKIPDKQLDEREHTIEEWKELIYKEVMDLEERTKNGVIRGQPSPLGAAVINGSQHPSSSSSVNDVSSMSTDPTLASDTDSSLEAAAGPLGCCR
GATD3: Glutamine amidotransferase-like class 1 domain-containing protein 3, mitochondrial (GATD3, Homo sapiens, UniProt P0DPI2)
Chain of UniProt P0DPI2 (whole entry, looked up): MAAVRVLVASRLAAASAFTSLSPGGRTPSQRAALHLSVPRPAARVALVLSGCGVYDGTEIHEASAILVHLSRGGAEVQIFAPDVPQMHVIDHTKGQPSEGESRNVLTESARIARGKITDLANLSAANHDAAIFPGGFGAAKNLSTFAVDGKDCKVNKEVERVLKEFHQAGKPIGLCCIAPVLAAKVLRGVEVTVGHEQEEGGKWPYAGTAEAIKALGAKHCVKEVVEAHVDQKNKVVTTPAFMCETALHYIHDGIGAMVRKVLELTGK
USP5 ZnF-UBD domain: Ubiquitin carboxyl-terminal hydrolase 5, ZnF-UBD domain (USP5, Homo sapiens, UniProt P45974)
Chain of UniProt P45974 (whole entry, looked up): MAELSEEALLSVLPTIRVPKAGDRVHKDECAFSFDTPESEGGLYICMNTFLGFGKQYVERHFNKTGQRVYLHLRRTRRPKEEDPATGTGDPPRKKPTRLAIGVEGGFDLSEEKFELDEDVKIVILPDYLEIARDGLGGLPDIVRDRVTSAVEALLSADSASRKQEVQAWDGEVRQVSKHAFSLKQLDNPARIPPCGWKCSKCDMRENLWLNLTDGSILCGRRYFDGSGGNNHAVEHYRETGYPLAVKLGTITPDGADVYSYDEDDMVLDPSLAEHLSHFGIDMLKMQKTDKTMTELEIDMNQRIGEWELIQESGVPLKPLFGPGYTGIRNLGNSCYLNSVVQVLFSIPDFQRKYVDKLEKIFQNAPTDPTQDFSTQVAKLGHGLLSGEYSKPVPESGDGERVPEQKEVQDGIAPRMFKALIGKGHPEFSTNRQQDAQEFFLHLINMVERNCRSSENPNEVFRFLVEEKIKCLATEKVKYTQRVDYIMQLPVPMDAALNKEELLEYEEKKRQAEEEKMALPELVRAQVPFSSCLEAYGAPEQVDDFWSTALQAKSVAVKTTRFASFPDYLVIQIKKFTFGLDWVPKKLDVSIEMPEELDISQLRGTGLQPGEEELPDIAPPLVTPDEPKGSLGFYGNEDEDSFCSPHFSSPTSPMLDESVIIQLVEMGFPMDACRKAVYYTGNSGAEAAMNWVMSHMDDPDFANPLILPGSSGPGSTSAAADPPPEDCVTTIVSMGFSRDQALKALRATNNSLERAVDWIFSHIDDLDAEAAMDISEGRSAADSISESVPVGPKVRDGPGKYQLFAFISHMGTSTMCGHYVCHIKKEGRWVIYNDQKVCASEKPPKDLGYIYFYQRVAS
HDAC5: Histone deacetylase 5 (HDAC5, Homo sapiens, UniProt Q9UQL6)
Chain of UniProt Q9UQL6 (whole entry, looked up): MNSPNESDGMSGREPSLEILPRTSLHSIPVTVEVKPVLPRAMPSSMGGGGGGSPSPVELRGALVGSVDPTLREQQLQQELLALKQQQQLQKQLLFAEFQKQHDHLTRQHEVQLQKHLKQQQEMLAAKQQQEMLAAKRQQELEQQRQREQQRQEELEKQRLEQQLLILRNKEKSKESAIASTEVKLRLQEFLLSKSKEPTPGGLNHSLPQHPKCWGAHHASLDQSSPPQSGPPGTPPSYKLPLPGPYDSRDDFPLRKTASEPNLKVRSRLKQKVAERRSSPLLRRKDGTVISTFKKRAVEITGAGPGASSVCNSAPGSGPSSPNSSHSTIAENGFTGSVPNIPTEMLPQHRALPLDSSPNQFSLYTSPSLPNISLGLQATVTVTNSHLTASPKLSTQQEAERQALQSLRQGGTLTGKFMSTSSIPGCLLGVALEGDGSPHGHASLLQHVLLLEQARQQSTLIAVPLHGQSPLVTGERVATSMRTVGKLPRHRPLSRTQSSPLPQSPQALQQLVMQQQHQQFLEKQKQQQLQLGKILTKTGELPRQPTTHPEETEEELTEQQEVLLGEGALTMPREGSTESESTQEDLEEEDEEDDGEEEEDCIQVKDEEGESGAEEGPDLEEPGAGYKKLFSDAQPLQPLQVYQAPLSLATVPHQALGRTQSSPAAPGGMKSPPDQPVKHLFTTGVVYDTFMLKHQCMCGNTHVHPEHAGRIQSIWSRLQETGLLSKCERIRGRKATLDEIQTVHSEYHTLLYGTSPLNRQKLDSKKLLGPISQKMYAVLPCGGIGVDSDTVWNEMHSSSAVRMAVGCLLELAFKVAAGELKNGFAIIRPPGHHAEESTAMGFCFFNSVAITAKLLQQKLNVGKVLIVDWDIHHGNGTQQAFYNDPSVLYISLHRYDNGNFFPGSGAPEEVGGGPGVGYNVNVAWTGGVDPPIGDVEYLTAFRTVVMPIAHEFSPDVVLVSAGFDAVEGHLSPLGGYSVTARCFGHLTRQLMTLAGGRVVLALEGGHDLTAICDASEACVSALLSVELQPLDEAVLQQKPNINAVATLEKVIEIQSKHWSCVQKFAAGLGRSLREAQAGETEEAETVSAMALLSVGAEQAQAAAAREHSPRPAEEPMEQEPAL
CA5B: Carbonic anhydrase 5B, mitochondrial (CA5B, Homo sapiens, UniProt Q9Y2D0)
Chain of UniProt Q9Y2D0 (whole entry, looked up): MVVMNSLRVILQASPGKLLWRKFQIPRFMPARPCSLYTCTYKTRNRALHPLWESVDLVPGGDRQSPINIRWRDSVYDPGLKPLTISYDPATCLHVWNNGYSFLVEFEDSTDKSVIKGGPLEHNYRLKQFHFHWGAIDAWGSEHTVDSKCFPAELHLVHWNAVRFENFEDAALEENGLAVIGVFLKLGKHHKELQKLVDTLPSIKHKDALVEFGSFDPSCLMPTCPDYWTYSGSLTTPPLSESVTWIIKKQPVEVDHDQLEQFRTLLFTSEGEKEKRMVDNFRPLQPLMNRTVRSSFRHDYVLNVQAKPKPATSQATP
Chain of UniProt P02749 (whole entry, unmodified, looked up): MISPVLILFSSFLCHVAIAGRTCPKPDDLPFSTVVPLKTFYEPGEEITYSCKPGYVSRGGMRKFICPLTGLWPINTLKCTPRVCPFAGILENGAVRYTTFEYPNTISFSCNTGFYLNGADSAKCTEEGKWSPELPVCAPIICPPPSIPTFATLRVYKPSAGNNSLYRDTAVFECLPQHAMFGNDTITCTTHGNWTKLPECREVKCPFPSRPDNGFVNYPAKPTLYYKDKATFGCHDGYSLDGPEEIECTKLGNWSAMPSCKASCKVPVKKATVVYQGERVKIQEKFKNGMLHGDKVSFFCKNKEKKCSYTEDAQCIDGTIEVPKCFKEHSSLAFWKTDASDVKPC
Chain of UniProt Q6VB83 (whole entry, looked up): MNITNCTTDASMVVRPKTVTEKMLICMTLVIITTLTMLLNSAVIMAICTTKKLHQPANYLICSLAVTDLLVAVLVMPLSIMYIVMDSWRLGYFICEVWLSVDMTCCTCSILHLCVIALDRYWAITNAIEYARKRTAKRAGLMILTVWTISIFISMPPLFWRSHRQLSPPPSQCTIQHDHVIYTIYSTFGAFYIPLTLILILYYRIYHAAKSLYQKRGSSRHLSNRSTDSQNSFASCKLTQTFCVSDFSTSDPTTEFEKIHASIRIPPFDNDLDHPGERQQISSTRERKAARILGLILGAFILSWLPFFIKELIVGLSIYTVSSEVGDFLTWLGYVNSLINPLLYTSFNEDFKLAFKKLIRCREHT
Chain of UniProt P18357 (whole entry, looked up): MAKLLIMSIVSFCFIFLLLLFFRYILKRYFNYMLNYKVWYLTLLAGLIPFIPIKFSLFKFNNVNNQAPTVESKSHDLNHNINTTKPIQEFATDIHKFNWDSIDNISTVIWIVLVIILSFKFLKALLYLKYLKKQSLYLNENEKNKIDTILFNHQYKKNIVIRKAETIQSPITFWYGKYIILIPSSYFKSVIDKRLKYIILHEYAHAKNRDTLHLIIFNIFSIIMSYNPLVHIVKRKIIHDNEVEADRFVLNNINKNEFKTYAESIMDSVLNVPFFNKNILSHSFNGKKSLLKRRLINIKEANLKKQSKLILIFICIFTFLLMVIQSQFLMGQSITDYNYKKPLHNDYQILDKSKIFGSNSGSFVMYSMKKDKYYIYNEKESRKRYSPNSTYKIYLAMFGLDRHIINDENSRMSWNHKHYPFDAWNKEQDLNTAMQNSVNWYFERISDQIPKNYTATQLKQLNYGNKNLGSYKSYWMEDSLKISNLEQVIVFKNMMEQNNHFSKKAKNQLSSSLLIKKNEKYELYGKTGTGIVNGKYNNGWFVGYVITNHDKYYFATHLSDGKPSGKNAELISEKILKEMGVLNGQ
Chain of UniProt P62993 (whole entry, looked up): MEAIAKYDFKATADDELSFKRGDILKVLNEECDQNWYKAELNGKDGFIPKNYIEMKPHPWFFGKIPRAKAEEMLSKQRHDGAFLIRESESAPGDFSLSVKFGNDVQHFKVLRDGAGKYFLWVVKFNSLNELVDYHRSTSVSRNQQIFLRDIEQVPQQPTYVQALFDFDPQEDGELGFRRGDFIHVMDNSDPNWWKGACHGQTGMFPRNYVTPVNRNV

With `CS(=O)(=O)NC(=O)c1cc(-c2ccc(N)cc2)ccn1` the Kd was 978 ± 112 µM (Tumor necrosis factor receptor superfamily member 1A extracellular domain; SPR OneStep; immobilized target).
With `O=C(Nc1nnc(-c2ccncc2)s1)C(F)(F)Br` the Kd was 12.7 µM (MAPK8).
With `CCN(CC)Cc1ccc2cc(COC(=O)Nc3ccc(C(=O)NO)cc3)ccc2c1` the Kd was greater than 30.2 µM (GATD3; inhibitor, competition pulldown; SW620 and MV4-11 lysate; 1 h).
The Kd of `Nc1ncnc2c1ncn2[C@@H]1O[C@H](COP(=O)(O)OP(=O)(O)OP(=O)(O)O)[C@@H](O)[C@H]1O` is reported as 13 ± 4 µM (CKMT1A (Homo sapiens, UniProt P12532, E265Q); microscale thermophoresis; pH 8.5, E227Q mutant, no substrate).
`O=C(O)CC1Oc2ccccc2NC1=O` (stereo not drawn) has a Kd of greater than 1000 µM (USP5 ZnF-UBD domain).
`OB(O)CSc1nc2ccccc2n1Cc1ccc(C(F)(F)F)cc1C(F)(F)F` gave a Kd of 10.2 µM (Regulatory protein BlaR1, sensor domain (blaR1, Staphylococcus aureus, UniProt P18357); binding, tryptophan fluorescence quenching; 1 h).
The Kd of `O=C(O)c1cc(-c2ccccc2)ccn1` is reported as 600 ± 30 µM (Tumor necrosis factor receptor superfamily member 1A extracellular domain; binding, SPR; irregular sensorgram).
`Nc1ncnc2c1ncn2[C@@H]1O[C@H](COP(=O)(O)OP(=O)(O)O)[C@@H](O)[C@H]1O` gave a Kd of 307 ± 194 µM (CKMT1A (Homo sapiens, UniProt P12532); microscale thermophoresis; pH 8.5, added: creatine 10 mM + nitrate 50 mM).
With `O=C(O)CCC(=O)c1ccc(S(=O)(=O)N2CCCC2)cc1` the Kd was 117 µM (USP5 ZnF-UBD domain).
The Kd of `O=[N+]([O-])c1ccc2c(N=Nc3ccc4ccccc4c3O)c(O)cc(S(=O)(=O)O)c2c1` is reported as 1.8 ± 0.2 µM (Diphosphomevalonate decarboxylase (Staphylococcus epidermidis, UniProt Q9FD73); binding, tryptophan fluorescence quenching; pH 8.3, 25 °C).
For `O=C(O)c1cc(-c2ccc3ncsc3c2)ccn1`, the Kd was 710 ± 76 µM (Tumor necrosis factor receptor superfamily member 1A extracellular domain; binding, SPR OneStep).
The Kd of `Cn1cc(CNCC2CCN(c3ncc(C(=O)NO)cn3)CC2)c2ccccc21` is reported as greater than 30.2 µM (GATD3; inhibitor, competition pulldown; SW620 and MV4-11 lysate; 1 h).
For `O=C(Nc1nnc(-c2ccncc2)s1)C(F)(F)Cl`, the Kd was 16.8 µM (MAPK8).
For `O=C(CN(Cc1ccccc1)S(=O)(=O)c1ccc(F)cc1)Nc1cccc(Cl)c1Cl`, the Kd was 7.73 ± 0.48 µM (Sodium channel protein type 8 subunit alpha, C-terminal domain (SCN8A, Homo sapiens, UniProt Q9UQD0); binding, surface plasmon resonance).
`N[C@H](CC(=O)O)C(=O)O` has a Kd of 23 ± 2 µM (Methyl-accepting chemotaxis protein, ligand-binding domain (Pectobacterium atrosepticum, UniProt Q6D6I9); isothermal titration calorimetry; pH 6.0, 25 °C, ligand-binding domain).
With `CO[C@H]1O[C@H](COS(=O)(=O)O)[C@@H](O[C@@H]2O[C@@H](C(=O)O)[C@@H](O[C@H]3O[C@H](COS(=O)(=O)O)[C@@H](O[C@@H]4O[C@H](C(=O)O)[C@@H](O[C@H]5O[C@H](COS(=O)(=O)O)[C@@H](O)[C@H](O)[C@H]5NS(=O)(=O)O)[C@H](O)[C@H]4O)[C@H](OS(=O)(=O)O)[C@H]3NS(=O)(=O)O)[C@H](O)[C@H]2OS(=O)(=O)O)[C@H](O)[C@H]1NS(=O)(=O)O` the Kd was 14.7 µM (Beta-2-glycoprotein 1, domain V (APOH, Homo sapiens, UniProt P02749, V266L); isothermal titration calorimetry; 25 mM cacodylate buffer; pH 7.2, 298 K, added: 100 mM NaCl).
The Kd of `O=C(NO)c1cnc(NC2(c3ccccc3)CC2)nc1` is reported as greater than 30.2 µM (GATD3; inhibitor, competition pulldown; SW620 and MV4-11 lysate; 1 h).
With `Nc1cccc(-c2ccnc(C(=O)O)c2)c1` the Kd was 690 ± 30 µM (Tumor necrosis factor receptor superfamily member 1A extracellular domain; binding, SPR; irregular sensorgram).
`O=C(O)Cc1cccc2cccnc12` has a Kd of greater than 1000 µM (USP5 ZnF-UBD domain).
With `CC[C@H](C)[C@H](NC(=O)[C@H](CCC(=O)O)NC(=O)[C@@H](N)CC(C)C)C(=O)N[C@@H](CCC(=O)O)C(=O)N1CCC[C@H]1C(=O)N[C@@H](CCCNC(=N)N)C(=O)N[C@@H](CC(N)=O)C(=O)N1CCC[C@H]1C(=O)N[C@@H](CCCCN)C(=O)N1CCC[C@H]1C(=O)O` the Kd was 1250 µM (GRB2 (Homo sapiens, UniProt P62993); binding, NMR titration, refers to: nSH3 domain; added: SOS1 proline-rich peptide).
For `Cn1cc(-c2ccc(S(=O)(=O)n3ccc(/C=C/C(=O)Nc4ccccc4N)c3)cc2)cn1`, the Kd was greater than 30.2 µM (GATD3; inhibitor, competition pulldown; SW620 and MV4-11 lysate; 1 h).
For `Nc1ccc(-c2cc(CO)nc(C(=O)O)c2)cc1`, the Kd was 868 ± 2 µM (Tumor necrosis factor receptor superfamily member 1A extracellular domain; binding, SPR OneStep).
The Kd of `O=C(O)CCC(=O)Nc1cccc2ccccc12` is reported as greater than 1000 µM (USP5 ZnF-UBD domain).
The Kd of `C/C=C1\NC(=O)[C@H]2CSSCC/C=C/[C@H](CC(=O)N[C@H](C(C)C)C(=O)N2)OC(=O)[C@H](C(C)C)NC1=O` is reported as 0.597 µM (HDAC5; inhibitor, competition pulldown; SW620 and MV4-11 lysate; 1 h).
With `O=C(O)c1cc(-c2ccc(F)cc2)ccn1` the Kd was no more than 1500 µM (Tumor necrosis factor receptor superfamily member 1A extracellular domain; binding, SPR OneStep injection; fragment screen).
`NS(=O)(=O)c1ccccc1` has a Kd of 12.5 µM (CA5B; thermal shift; pH 7.0, 25 °C).
The Kd of `O=C(O)CNC(=O)c1ccc(C(=O)N2CCC(c3ccc(Cl)cc3)CC2)cn1` is reported as 71.1 µM (USP5 ZnF-UBD domain).
`CCCC(CCC)C(=O)O` has a Kd of greater than 3020 µM (HDAC5; inhibitor, competition pulldown; SW620 and MV4-11 lysate; 1 h).
With `C=CC(=O)N1CCN(c2nc(OC[C@@H]3CCCN3C)nc3c(F)c(-c4nc(N)cc(C)c4C(F)(F)F)c(Cl)cc23)[C@@H](C)C1` the Kd was 0.563 ± 0.043 µM (GTPase KRas, GDP-bound (KRAS, Homo sapiens, UniProt P01116, Q61R); binding, surface plasmon resonance).
`CC(=O)N[C@H]1[C@@H](OC(C)C(N)C(=O)O)O[C@H](CO[C@]2(C(=O)O)C[C@H](O)[C@@H](NC(C)=O)[C@H]([C@H](O)[C@H](O)CO)O2)[C@H](O)[C@@H]1O` (stereo partly drawn) has a Kd of 25 µM (CLEC10A, carbohydrate recognition domain (Homo sapiens, UniProt Q8IUN9); isothermal titration calorimetry; 293 K; lower = stronger binding).
With `NC(=O)c1cccc(-c2ccc(C(=O)O)nc2)c1` the Kd was 920 ± 10 µM (Tumor necrosis factor receptor superfamily member 1A extracellular domain; SPR OneStep; immobilized target).
`O=C(O)CCn1c(=O)oc2ccccc21` gave a Kd of greater than 1000 µM (USP5 ZnF-UBD domain).
With `O=C(/C=C/c1ccc(CN(CCO)CCc2c[nH]c3ccccc23)cc1)NO` the Kd was greater than 30.2 µM (GATD3; inhibitor, competition pulldown; SW620 and MV4-11 lysate; 1 h).
For `O=C(O)c1ccc(-c2ccc(CO)cc2F)cn1`, the Kd was 920 ± 30 µM (Tumor necrosis factor receptor superfamily member 1A extracellular domain; SPR OneStep; immobilized target).
The Kd of `O=C(O)CCc1ccccc1` is reported as greater than 1000 µM (USP5 ZnF-UBD domain).
`Nc1nc(-c2ccc(Cl)c(S(N)(=O)=O)c2)cs1` gave a Kd of 0.63 µM (CA5B; thermal shift; pH 7.0, 25 °C).
With `C[C@@H](N[C@@H](CCCN=C(N)N)C(=O)O)C(=O)O` the Kd was 0.268 µM and 0.196 µM (uncharacterized protein (Pelagibacter ubique, UniProt Q4FLC2); isothermal titration calorimetry; Candidatus Pelagibacter ubique).
The Kd of `CCCCOc1ccc(CC(=O)NO)cc1` is reported as 1.59 µM (GATD3; inhibitor, competition pulldown; SW620 and MV4-11 lysate; 1 h).
The Kd of `Cc1cc(NC(=O)CCC(=O)O)nn1C` is reported as greater than 1000 µM (USP5 ZnF-UBD domain).
For `NCCc1c[nH]c2ccc(O)cc12`, the Kd was 0.00572 ± 0.00073 µM (5-hydroxytryptamine receptor 1E (5HT1E, Cavia porcellus, UniProt Q6VB83); binding, radioligand, saturation binding; hippocampal membranes; pH 7.4, 37 °C, added: ritanserin 30 nM, 5-CT masking).
`N[C@@H](Cc1c[nH]c2ccccc12)C(=O)O` has a Kd of 0.25 µM (Transcription attenuation protein MtrB (mtrB, Halalkalibacterium halodurans, UniProt Q9KCC6); binding, native mass spectrometry; Bacillus halodurans).
`Cc1cc2nc3c(=O)[nH]c(=O)nc-3n(C[C@H](O)[C@H](O)[C@H](O)COP(=O)(O)OP(=O)(O)OC[C@H]3O[C@@H](n4cnc5c(N)ncnc54)[C@H](O)[C@@H]3O)c2cc1C` has a Kd of 0.008 µM (Single-stranded DNA-binding protein 3 (SSBP3, Homo sapiens, UniProt Q9BWW4); binding, MS pulldown competition; SW-620 cell lysate).

Repeated from above:
The Kd of `C/C=C1\NC(=O)[C@H]2CSSCC/C=C/[C@H](CC(=O)N[C@H](C(C)C)C(=O)N2)OC(=O)[C@H](C(C)C)NC1=O` is reported as 0.597 µM (HDAC5; inhibitor, competition pulldown; SW620 and MV4-11 lysate; 1 h).
With `O=C(O)c1cc(-c2ccc(F)cc2)ccn1` the Kd was no more than 1500 µM (Tumor necrosis factor receptor superfamily member 1A extracellular domain; binding, SPR OneStep injection; fragment screen).
`NS(=O)(=O)c1ccccc1` has a Kd of 12.5 µM (CA5B; thermal shift; pH 7.0, 25 °C).
The Kd of `O=C(O)CNC(=O)c1ccc(C(=O)N2CCC(c3ccc(Cl)cc3)CC2)cn1` is reported as 71.1 µM (USP5 ZnF-UBD domain).
`CCCC(CCC)C(=O)O` has a Kd of greater than 3020 µM (HDAC5; inhibitor, competition pulldown; SW620 and MV4-11 lysate; 1 h).
With `C=CC(=O)N1CCN(c2nc(OC[C@@H]3CCCN3C)nc3c(F)c(-c4nc(N)cc(C)c4C(F)(F)F)c(Cl)cc23)[C@@H](C)C1` the Kd was 0.563 ± 0.043 µM (GTPase KRas, GDP-bound (KRAS, Homo sapiens, UniProt P01116, Q61R); binding, surface plasmon resonance).
